Measured values gathered from unrelated publications.
Each numbered part is a random draw from the data of one study; scales do not carry over between parts. Changes are numbered by the printed parent chain.

Sample 1 — observed: peptide-MHC binding; molecule type: peptide; tested at: concentration not given
Target: HLA class I histocompatibility antigen, A alpha chain, allele A*80:01 (Homo sapiens, UniProt P04439)
Molecule | binding
WQQWDRQSL | inactive
LELAEITAE | inactive
KGMKIQHFK | inactive
KQGDVFYTA | inactive
WLGDVWQEK | inactive
AHYEEDVNL | inactive
LVKTESWIL | inactive
MFWKLPPWL | inactive
GIVSSMHYK | inactive

Sample 2 — target: CCNE1, cyclin fold, Cln2 fusion (human); method: yeast growth competition, sequencing; sample: yeast; setting: strong parent motif; reference: not given; reading: higher = stronger binding; starting sequence: viral docking peptide; KGVKRKLFAEDSS
Change | normalised enrichment score
L7T | 0.344
V3C | 5.95
V3T | 5.56
E10N | 7.17
R5A L7A | 0.249
K4L | 2.84
V3H | 5.44
S12C | 7.5
L7E | 0.528
F8E | 0.521
V3N | 0.361
L7A | 0.212
D11E | 7.41
E10Q | 6.7
F8Y | 3.39
R5K | 4.85
D11K | 6.81
D11M | 6.74
R5F | 0.495
S12E | 6.95
D11W | 6.41
R5K F8L | 0.533
K6M | 7.14
E10S | 6.67
K4Q | 5.86

Sample 3 — target: UBE2W UBC core domain (UniProt Q96B02); method: yeast two-hybrid; sample: yeast; setting: mostly zero background; reference: not given; reading: higher = stronger interaction
B1: CUL9 RING domain (UniProt Q8IWT3); chain AQAVPVRPDHCPVCVSPLGCDDDLPSLCCMHYCCKSCWNEYLTTRIEQNLVLNCTCPIADCPAQPTGAFIR
B2: TRIM8 RING domain (UniProt Q9BZR9); chain WKNCFEEELICPICLHVFVEPVQLPCKHNFCRGCIGEAWAKDSGLVRCPECNQAYNQKPGLE
Construct (chain): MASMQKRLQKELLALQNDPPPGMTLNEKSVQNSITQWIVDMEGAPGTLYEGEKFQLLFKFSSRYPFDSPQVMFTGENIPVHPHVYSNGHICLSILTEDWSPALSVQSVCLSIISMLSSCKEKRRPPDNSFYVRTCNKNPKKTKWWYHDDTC
Molecule | lacZ reporter activity
EDEVSDNSAECVVCLSDVRDTLILPCRHLCLCNTCADTLRYQANNCPICRLPFRALLQIR (RNF157 RING domain (UniProt Q96PX1)) | 0
KTLSRFGIQPCSICLGDAKDPVCLPCDHVHCLRCLRAWFASEQMICPYCLTALPDEFSPA (RNF213 RING domain (UniProt Q63HN8)) | 0
DDENSDNSNECVVCLSDLRDTLILPCRHLCLCTSCADTLRYQANNCPICRLPFRALLQIR (MGRN1 RING domain (UniProt O60291)) | 0
RLTMMWEEVTCPICLDPFVEPVSIECGHSFCQECISQVGKGGGSVCPVCRQRFLLKNLRP (TRIM21 RING domain (UniProt P19474)) | 0
FASPPDSNFVCSVCHGVLKRPARLPCSHIFCKKCILRWLARQKTCPCCRKEVKRKKVVH (RNF151 RING domain (UniProt Q2KHN1)) | 0
YWAMDSTFELCKICAESNKDVKIEPCGHLLCSCCLAAWQHSDSQTCPFCRCEIKGWEAVS (CBLC RING domain (UniProt Q9ULV8)) | 0
B1 (CUL9 RING domain) | 0
B2 (TRIM8 RING domain) | 0
QLRRLQEERTCKVCMDKEVSIVFIPCGHLVVCKDCAPSLRKCPICRSTIKGTVRTF (BIRC3 RING domain (UniProt Q13489)) | 9550

Sample 4 — method: RNA Bind-n-Seq; molecule type: RNA; sample: in vitro; tested at: 365 nM; reference: no-protein control; reading: higher = stronger binding
Target: RNA binding protein fox-1 homolog 2, RRM domain, GST-SBP tag (RBFOX2, Homo sapiens, UniProt O43251-10, residues 100-194)
Setting: natural RNA segment, single round, ends assumed
Constant ends, left off below: GGGAGUUCUACAGUCCGACGAUC … UGGAAUUCUCGGGUGCCAA
Residues (chain): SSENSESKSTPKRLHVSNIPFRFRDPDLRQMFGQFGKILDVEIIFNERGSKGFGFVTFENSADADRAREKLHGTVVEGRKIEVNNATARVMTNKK
Strand | RBNS enrichment (R)
AUGGCAGAAACUUCAUGAACCAGCCCUUUCUCAGAGCCAGUGAUGUGAGUGUAUCAGAAUGCCAGGGAGGGCACCAGCCCUGAUCCACAGACCUCGGAAAGAUGCCCCUG | 0.274
ACUCGGCCGUCCCCCCUACCUCUGAGCUCUCAAUGCUGCUAAUCUCUGCCAAGUGUCCCUGUGCUCCAGCACCUUCCUUGAAGGACUGACGCCCACCCCACGCUCUUUGC | 0.423
AAUGCACUUAUUUUUAAACGAGCAUGACAUGAGGUGUGUUUAUAAAUUAUCAGGGAUUUUAUGUAUUGUACAUAGAUGACAAUAGGAAAUUGUUUAUUUCAAGAAAUAGC | 12.7
AUCACGUGUGGCUCCAGCCCUUGUUUCUGCCAGUGUAGACACCUCUGUCUGCCCCACUGUCCUGGGGUCGCUCUUGGGAGGCACAGGCAUGGGUGUGUCUGGCCUCAUUC | 0.304
GUACUUUACCAGAGAGGUGUACAUACUUCUUUUCAGUGUUGUGACCAAGUGCUGCGACUCAGCCAACAACUUACCACAUUCGGGGCUGGGAGCUGUUCUAAGAAAGGGAC | 0.319
UUAGCUGCAGGAAGGCCUCUUAGCCAGGCUAUUCCCAUUCCAUCCGCUCCCUUCUCCCCACCCAAACCCCACACUGCAGCAGGCAGGCCAGGGCGGGUGUGGGGCUGGCU | 0.284
AGCUAUAGUACCUUCCAGAUGGGCAAAAGUGUACACUACAGUUGAGGAGCUGAACCUUAUUAGGUUGGAUGUCGAUCAGGAACCUGUUUGCCCUUUGCUGGGAAGCCUUC | 0.385
CAGACUCAGUUUUUCUUAUGUUAUACAAAAUAUUAGCCAUGCAUUUAUUAUGUAAAGGACUACCCAUGAUAACAUGCCAUAUUAUGUGUUUAUAUUCUAAUGUAACCAUA | 0.396

Sample 5 — Change: E131S; method: DHFR PCA, deep sequencing; sample: yeast; reference: wild-type fitted maximum; reading: higher = stronger binding
Target: ABI1, truncated, D143A, DHFR fusion (Arabidopsis thaliana)
Setting: methotrexate growth selection, single substitutions
Starting sequence: PYL1, truncated, DHFR fusion (Arabidopsis thaliana); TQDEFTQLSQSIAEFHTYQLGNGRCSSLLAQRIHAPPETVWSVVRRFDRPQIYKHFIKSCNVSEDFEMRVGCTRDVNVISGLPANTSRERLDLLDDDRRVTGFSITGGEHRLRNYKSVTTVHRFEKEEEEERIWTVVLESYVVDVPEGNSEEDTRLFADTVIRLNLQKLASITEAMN
together with | relative binding score [%]
(+)-ABA 4.8 µM | 82.2
(+)-ABA 0.0091 µM | 49
(+)-ABA 58 µM | 95.9
(+)-ABA 0.11 µM | 48.4
(+)-ABA 1.4 µM | 68.8
(+)-ABA 17 µM | 87.6

A few entries again (sample 1):
Molecule | binding
KQGDVFYTA | inactive
LVKTESWIL | inactive
GIVSSMHYK | inactive
WLGDVWQEK | inactive
KGMKIQHFK | inactive
WQQWDRQSL | inactive
MFWKLPPWL | inactive
AHYEEDVNL | inactive
LELAEITAE | inactive
